Assay results from different studies.
Every numbered part comes from another study and shows a few of its results, in no order.

Set 1
Target: Phosphate system positive regulatory protein PHO4, full length, GST-tagged (PHO4, Saccharomyces cerevisiae, UniProt P07270, residues 1-312)
Method: competition protein-binding microarray
Form: double-stranded DNA, one strand shown
Medium: in vitro
Concentration: 2 µM
Notes: whole 60-bp probe, lowest competitor level
Added: Cbf1 competitor, 0.05 µM
Direction: higher = stronger binding
Shared flanks, not repeated: … GTCTTGATTCGCTTGACGCTGCTG
Target sequence (chain): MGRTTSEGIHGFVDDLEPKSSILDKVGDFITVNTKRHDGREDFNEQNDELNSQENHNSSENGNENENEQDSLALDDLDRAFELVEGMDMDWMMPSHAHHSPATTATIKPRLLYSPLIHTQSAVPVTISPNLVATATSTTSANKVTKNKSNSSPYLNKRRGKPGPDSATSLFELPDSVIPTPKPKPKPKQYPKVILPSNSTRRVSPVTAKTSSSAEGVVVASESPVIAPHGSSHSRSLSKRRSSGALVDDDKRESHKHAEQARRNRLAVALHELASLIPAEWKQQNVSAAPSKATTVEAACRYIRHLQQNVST
Sequence | fluorescence intensity
CTTTCCCGATCTTGTCCCGTGGGTGTAGCACATTTG | 9200 a.u.
CTTGGTTACAGGTATCATGTGTGAAACTGTTTGCGG | 6530 a.u.
TCACAAGAATCAATTGTATTTTTCTAGACTCGCTAA | 2650 a.u.
CTTTCCCGATCTTGTGAAGTGGGTGTAGCACATTTG | 4390 a.u.
CAGGGATCAGGGCACCACGTGGGGGAAGGACTGTGT | 20900 a.u.
CACTTCGGTTAGCATCACTTTTAACCAATCTCTTTC | 3610 a.u.
AAATTACTAAGTTGCTTTGTGGGTGACGCCGTATGA | 3790 a.u.
AGTAACCCTGCTTCACACATGAGAAACATTATCGCT | 5440 a.u.
CAGATCGATTTGATATACGTGGTGAAGCAAAAAGCG | 5450 a.u.
AGCGGCACATAATGCAGCGTGCGGAAGTGTCAGTAG | 9360 a.u.
AAAGCGGTAATTTGCCGAGTGGGTGCAGATATCTAT | 4350 a.u.
AAATTACTAAGTTGAAGAGTGGGTGACGCCGTATGA | 3690 a.u.
CTAACGAAGGTTTGCTCAGTGGGTGACAAGCCAAGT | 3440 a.u.
CTTCTGTAAATTTGATACGTGGGTGGACGCGCCCCG | 6530 a.u.
CGGGGTTAAGTTTGAATCGTGGGTGGCTTGCAGCAG | 7120 a.u.
AAGCTGAAGTATGGTGTCGTGACTCGGATTTCCGCT | 4800 a.u.
AAAGCGGTAATTTGGCCGGTGGGTGCAGATATCTAT | 4300 a.u.
CCTTAACGCAATCGGTGTGTGATATTGCTCTAAGGT | 5730 a.u.
TGTTATTAACGTACCCACGCACAGTGGTGCTATCCA | 8570 a.u.
CTAACGAAGGTTTGATCCGTGGGTGACAAGCCAAGT | 4980 a.u.
TCAATTTCGAACGGAAGCGTGCGGACTCTGAGTTTT | 8240 a.u.
TTGACGATTATGATGAACGTGACTCGCAAGAAATAT | 8420 a.u.
TTTTTCTCGAACGGCCACGTTTGCGTTGTTACATGA | 12800 a.u.
CATACCCAACCTTTTCACGTGGGCTAAGATATTTGT | 17100 a.u.
CGGGGTTAAGTTTTTCACGTGATGTGCTTGCAGCAG | 11700 a.u.

Set 2
Target: RNA binding protein fox-1 homolog 2, RRM domain, GST-SBP tag (RBFOX2, Homo sapiens, UniProt O43251-10, residues 100-194)
Method: RNA Bind-n-Seq
Form: RNA
Medium: in vitro
Concentration: 365 nM
Notes: natural RNA segment, single round, ends assumed
Baseline: no-protein control
Direction: higher = stronger binding
Shared flanks, not repeated: GGGAGUUCUACAGUCCGACGAUC … UGGAAUUCUCGGGUGCCAA
Target sequence (chain): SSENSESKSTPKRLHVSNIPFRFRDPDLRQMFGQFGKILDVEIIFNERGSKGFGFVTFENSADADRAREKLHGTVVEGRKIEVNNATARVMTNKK
Sequence | RBNS enrichment (R)
GUUGGCAUGUUGUCGAAGCCAAUGGCAGCUUGACUGAUGUGAGGUGGCUAUUCCACCUGGUUCAAGAUGGAGGUGUAGAGAAAAGGGAAGUGGGGAACAAGGACUGGGCC | 2.35
UCAAAUUUAGGGGCAAAGUGGAGACUGGAAGAAUUCUCCUUUCAGAAGAACCACGAGGCUCUGGCUGAGCCUCCCUCUGGAGUGCUAGUGUACCUGUGGGUCUGUCCUCU | 0.232
CAAAUCAGUGUUAGUGACAAGCCCCGACCGUGGCGAUGUGCUGGAAAACACGGACCUUUUGGGUUAAAAGCUUUAACAUCUGUGAGGAAGAACUGGUCACAUGGGUUUGG | 0.603
UCGCUGAGAUCUGUAACUUACAGGACACUCAAAGGGCAAUGGUUUUUUUUGGGGGGGGGGUUGUUUUUUUGGUUUUUUUUUUUCUGUAACAUAUUAGGGAAAAAAUGCAG | 1.24
UGAGUCCUUGUACAGAAAUGAUAGAGGCCUGAGGGGGUGUGCAGGUGAUAGACCCUGGUACUCCUAAGACCUGGGGUAUCAUAUCAGGGACCUGCUUGUGAACAUGUGUA | 0.534
AUUCCUUGAGUCAUAGGUAUUAAUAAUAAAAGCCUCAAUGCAGCUUCUCCAUGUAGUUCCUCUCCUACAAGCCAGGUGGAUUCUGGUCCUAACUAAAGAGAUGGGAGUUC | 0.258
UACUCUCACUGUAAUUUAUGGACCCUGCCCGCCUGCGUGUUGUGUGUAUGUCCUGUGCCUUUUCUCACUAUUGUUUGGGUGUGGGAGGGGGUGGUUUUUCACUGAAAAGG | 4.02
UUUUUUACUGGGCUUGGCUGGCCUUGCAGUUUACCAGAUUCAUUUACAGACUCUCUGCUCUGUAUGGCGCCGCCUGCCAUGUCUGUCUUGGUGACUAUCCUGCCUUAAUC | 0.799
UGCAGAGGAGGUUCUCUUCAUAAGGGGGACUCACAGAAGGACCUUCCAGUGAAUGUUUGACCUAGGGAAUGCAGCCACACUGGAAGCACCAAUAGAGGGCUAAGGUCAGA | 8.19
UGGGAGGCAAGGGAAUAGGAAAGCCAAAGGCCAAGCAGGAACUCUGUGCCUGCUCUCUGCUCCUGUUCUUUCCCUCCCAUACCUGGCUGCUGUGAGGACACUCACCUUGU | 0.171
CAGCAUGCAUCACGGAUCAAUAGACUGUACUUAUUUUCCAAUAAAAUUUUCAAACUUUGUACUGUUAUCCUGAGAAUCUGUUCUUUGUCCAGUCCACAGCUUACCUGCAC | 76.6
GCAAACAGAUGAGUAAUUUUUUAGCAACACCUGAAAAUAUACUAAACUUUCCUAGAUAAACUUUAAGGUUUCUAUACUGAGGCUUUUAUAAUGAACGCACCUCGUUAAGU | 0.644

Set 3
Target: Sal-like protein 4, full length isoform B (SALL4, Homo sapiens, UniProt Q9UJQ4-2, residues 1-616)
Method: universal PBM
Form: double-stranded DNA, one strand shown
Medium: in vitro
Concentration: not given
Notes: 8-mer, flanks averaged, mean of replicates
Direction: higher = stronger binding
Residues (chain): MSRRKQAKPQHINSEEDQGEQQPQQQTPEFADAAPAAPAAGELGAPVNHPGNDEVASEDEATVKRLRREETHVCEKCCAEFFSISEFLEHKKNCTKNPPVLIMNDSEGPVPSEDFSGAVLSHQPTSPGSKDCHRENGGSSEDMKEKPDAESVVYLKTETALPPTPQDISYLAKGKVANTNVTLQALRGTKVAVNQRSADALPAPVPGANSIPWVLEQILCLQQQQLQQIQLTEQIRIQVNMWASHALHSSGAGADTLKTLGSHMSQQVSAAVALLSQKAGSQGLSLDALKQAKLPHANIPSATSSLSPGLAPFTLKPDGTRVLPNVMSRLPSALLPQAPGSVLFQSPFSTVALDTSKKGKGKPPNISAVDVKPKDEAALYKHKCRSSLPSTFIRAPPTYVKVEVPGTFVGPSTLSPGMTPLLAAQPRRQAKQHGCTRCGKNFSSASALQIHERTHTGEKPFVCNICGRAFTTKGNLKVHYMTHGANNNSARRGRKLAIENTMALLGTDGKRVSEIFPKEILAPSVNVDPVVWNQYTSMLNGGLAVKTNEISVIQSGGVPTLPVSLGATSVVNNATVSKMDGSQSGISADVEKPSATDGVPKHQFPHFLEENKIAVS
Sequence | E-score
TGCACCAA | -0.136
GTCGTACA | 0.071
GAACACCA | -0.0342
ACCCGAGG | -0.128
CGGGTATC | -0.0901
CTACCCAG | -0.153
AGAGTTTG | 0.131
GATATGGA | 0.348
AAGCAAAA | 0.233
GTTGGGTA | -0.0491
ATAAAAAA | 0.381
GCCTAGAC | -0.201
CTTTACCC | 0.0404
GTATGACA | 0.313
ACTAATTA | 0.369
ATATCACC | 0.316
AGACTACA | 0.0619
ACCTATTC | 0.0199
CTCCATTA | 0.178
AAGCTCAG | -0.0586
ACACGCGG | -0.217
CATTATGG | 0.116
CTGGTCAA | -0.15
ACCCGACT | -0.15
AATTCGGC | -0.0697

Set 4
Target: Histone acetyltransferase KAT6A, both winged helices, GST fusion (KAT6A, Homo sapiens, UniProt Q92794, residues 1-181)
Method: protein binding microarray
Form: double-stranded DNA, one strand shown
Medium: in vitro
Concentration: not given
Notes: 8-mer, flanks averaged, mean of 2 arrays, mostly near background
Baseline: not given
Direction: higher = stronger binding
Residues (chain): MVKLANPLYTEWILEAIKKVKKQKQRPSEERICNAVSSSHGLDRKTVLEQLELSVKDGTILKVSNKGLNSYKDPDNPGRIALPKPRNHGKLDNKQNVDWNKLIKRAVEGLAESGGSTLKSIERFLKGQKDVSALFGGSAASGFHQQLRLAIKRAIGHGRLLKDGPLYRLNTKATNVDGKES
Sequence | E-score
CATAATAA | -0.0752
CTTGAGAA | -0.234
ACTAGCAA | -0.17
GCCAGCCC | -0.171
ATCATAGC | -0.0809
AACTGCTG | -0.136
GCCAATCA | -0.195
GCAAGAGA | -0.0341
ATCATCCC | -0.0728
CTAGCGTC | 0.187
ATCTCTAC | -0.123
GGTAGACC | -0.0368
GCTCTCTA | -0.12
CCTCTGAC | -0.109
CATCTAAG | -0.113
AGCATCCG | 0.0237
CCCGTTTA | 0.158
CGGCTTGA | 0.207
ATATACCC | -0.0389
AACATGGT | -0.102
AGGAGAAG | -0.303
TAGGCTGA | -0.149
AAACTACC | -0.0477
GCGGATAA | 0.205
